Assay results of several laboratories.
Every numbered part comes from another study and shows a few of its results, in no order. Changes are numbered by the printed parent chain.

Study 1
Target: Interferon regulatory factor 3, full length, phosphomimetic (IRF3, Homo sapiens, UniProt Q14653, residues 1-427, S386D/S396D/S398D/S402D/T404D/S405D)
Method: protein-binding microarray
Form: double-stranded DNA, one strand shown
Sample: in vitro
Tested at: 2540 nM top
Notes: 60-bp whole probe
Added: salmon DNA 0.4 mg/ml
Baseline: random background probes
Reading: higher = stronger binding
Constant ends, left off below: GCCTAGCAC … GTCTTGATTCGCTTGACGCTGCTG
Construct (chain): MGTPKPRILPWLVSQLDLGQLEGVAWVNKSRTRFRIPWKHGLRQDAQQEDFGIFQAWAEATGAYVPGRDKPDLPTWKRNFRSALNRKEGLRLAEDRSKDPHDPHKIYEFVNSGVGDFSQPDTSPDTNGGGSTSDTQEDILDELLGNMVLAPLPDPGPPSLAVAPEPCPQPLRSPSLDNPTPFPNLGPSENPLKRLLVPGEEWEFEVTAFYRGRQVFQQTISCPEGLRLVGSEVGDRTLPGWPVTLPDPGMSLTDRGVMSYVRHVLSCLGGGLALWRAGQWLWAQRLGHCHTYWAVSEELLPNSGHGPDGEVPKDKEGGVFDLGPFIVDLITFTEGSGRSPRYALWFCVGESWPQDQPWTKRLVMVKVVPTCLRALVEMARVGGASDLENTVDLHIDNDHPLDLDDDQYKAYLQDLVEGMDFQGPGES
Sequence | fitted relative affinity
GACGGCCTCCTTTTCCTGACGTGCTAG | 0.798 z-score
GACCATCTCATATAAATAGGCGTGCTA | 1.5 z-score
TTAGTTCTGAGTCTTCCCTTGTGCTAG | -0.0275 z-score
TTAGGACTGGACTTTCGGTTCGTGCTA | 2.27 z-score
GACGATCTCAGTATCGAGGCGTGCTAG | 0.769 z-score
GACGGAGTGGGTATCGGGACGTGCTAG | -0.256 z-score
GACGGTATCGACACTAGGGACGTGCTA | 0.699 z-score
TTAGGACTGGGTTTCGGTTAGTGCTAG | 2.85 z-score

Study 2
Target: CRIPT, C-terminal peptide
Method: DHFR complementation, deep sequencing
Sample: yeast
Notes: single substitutions, model-inferred values
Baseline: wild type
Reading: higher = weaker binding
Parent: ERBIN, PDZ domain 1 (human); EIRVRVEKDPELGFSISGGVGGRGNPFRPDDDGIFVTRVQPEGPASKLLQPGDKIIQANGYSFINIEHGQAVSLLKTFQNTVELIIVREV; partner TKNYKQTSV
Substitution | binding free energy change [kcal/mol]
V4M | 0.0863
Q57D | -0.00167
P26M | 0.796
I55Y | 1.14
A58M | 0.913
L12F | -0.0944
E83C | 0.0659
P51W | 0.363

Study 3
Target: JUND, bZIP domain (human)
Method: DHFR protein complementation
Sample: yeast
Notes: single substitutions, most at no-binding floor
Baseline: wild-type JUN-FOS pair
Reading: higher = stronger binding
Parent: JUN, bZIP domain (human); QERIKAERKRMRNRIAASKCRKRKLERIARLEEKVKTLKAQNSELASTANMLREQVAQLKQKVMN
Substitution | binding fitness
L45D | -1.43 natural log
L38W | -1.42 natural log
L45H | -1.38 natural log
E32P | -1.46 natural log
I28G | -1.28 natural log
T48W | -1.34 natural log
L45Y | -1.33 natural log
A40P | -1.42 natural log

Single results of other studies
Parent: PafA, mature enzyme, eGFP fusion (Elizabethkingia meningoseptica, UniProt Q9KJX5); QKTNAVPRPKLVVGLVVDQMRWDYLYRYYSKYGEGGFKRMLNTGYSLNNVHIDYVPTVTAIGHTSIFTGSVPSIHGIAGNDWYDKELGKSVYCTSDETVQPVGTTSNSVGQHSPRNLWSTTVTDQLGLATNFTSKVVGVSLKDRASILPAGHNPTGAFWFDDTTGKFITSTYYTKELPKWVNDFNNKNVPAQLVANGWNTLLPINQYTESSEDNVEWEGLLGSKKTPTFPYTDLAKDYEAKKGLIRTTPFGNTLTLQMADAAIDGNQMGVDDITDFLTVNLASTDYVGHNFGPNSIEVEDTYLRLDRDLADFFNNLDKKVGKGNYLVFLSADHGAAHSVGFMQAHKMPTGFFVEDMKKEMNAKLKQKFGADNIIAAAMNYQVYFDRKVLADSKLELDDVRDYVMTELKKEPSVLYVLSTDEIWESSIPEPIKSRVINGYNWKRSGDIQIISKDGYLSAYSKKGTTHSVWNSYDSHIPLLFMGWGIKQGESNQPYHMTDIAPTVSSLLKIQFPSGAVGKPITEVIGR
Substitution | target | assay | test system | conditions | how to read | quantity | value
K461V | tungstate, free oxyanion | microfluidic competitive inhibition | in vitro, cell-free expressed | not given, derived from inhibition constants, unchanged parent 2230 nM | lower = stronger binding | oxyanion analog dissociation constant | 2850 nM

Some of these lines once more (single results of other studies):
Substitution | target | assay | test system | conditions | how to read | quantity | value
K461V | tungstate, free oxyanion | microfluidic competitive inhibition | in vitro, cell-free expressed | not given, derived from inhibition constants, unchanged parent 2230 nM | lower = stronger binding | oxyanion analog dissociation constant | 2850 nM
